Measured values of several laboratories.
Compare with care: the assays were run in different laboratories.
Cell line: K562

SMILES | test | setting | how to read | measurement | result
CC(C)C[C@H](NC(=O)[C@H](CO)NC(=O)[C@H](Cc1c[nH]c2ccccc12)NC(=O)[C@H](Cc1ccccc1)NC(=O)[C@H](Cc1ccccc1)NC(=O)[C@H](CCC(N)=O)NC(=O)[C@@H]1CCCN1C(=O)[C@H](CCCNC(=N)N)NC(=O)[C@H](CCCNC(=N)N)NC(=O)[C@H](CCCNC(=N)N)NC(=O)[C@H](CCC(N)=O)NC(=O)[C@H](CCCNC(=N)N)NC(=O)[C@H](CCCNC(=N)N)NC(=O)[C@H](CCCCN)NC(=O)[C@H](CCCCN)NC(=O)[C@H](CCCNC(=N)N)NC(=O)CNC(=O)[C@@H](N)Cc1ccc(O)cc1)C(=O)N[C@@H](CS)C(=O)N[C@H](C(=O)N[C@@H](C)C(=O)O)[C@@H](C)O |  | 20 µM, 15 min |  | trypan blue-negative cells | 22.4%
OC[C@H]1[C@@H](O)[C@@H](O)CN1Cc1ccc(I)cc1 | cell growth or viability, MTS | 72 h |  | IC50 | 156 µM
C#CCSc1nc(Sc2nnnn2C)c2nnn(Cc3ccccc3)c2n1 | cell growth or viability, MTS | 6 days |  | IC50 | 7.02 µM
CC1=CCC23OC2(C)CCC2C(C[N+](C)(C)C)C(=O)OC2C13.[I-] (stereo not drawn) | cell growth or viability, SRB | 8.3 µM |  | inhibition | 68.2%
CC1CCC2C(C)C(OC(=O)CCC(=O)N(CCCc3cn(-c4ccc([N+](=O)[O-])cc4)nn3)CCNc3ccnc4cc(Cl)ccc34)OC3OC4(C)CCC1C32OO4 (stereo not drawn) | cell growth or viability, resazurin | 10 µM, 48 h |  | inhibition | 81.2%
OC[C@H]1[C@@H](O)[C@@H](O)CN1Cc1ccccc1 | cell growth or viability, MTS | 72 h |  | IC50 | 194 µM
CC12CCC3(CCC(=O)NCCCNc4ccnc5cc(Cl)ccc45)C(C)(OOC3(C)O1)O2 | cell growth or viability, resazurin | 10 µM, 48 h |  | inhibition | 22.3%
C[C@H]1[C@H](OC(=O)CCC(=O)Oc2ccc(-c3cc(=S)ss3)cc2)O[C@@H]2O[C@@]3(C)CC[C@H]4[C@H](C)CC[C@@H]1[C@@]24OO3 | cell growth or viability, CCK-8 | 72 h |  | IC50 | 2.98 µM
CC1CCC2C(C)C(OC(=O)CCC(=O)N(CCCc3cn(-c4ccc(C#N)cc4)nn3)CCNc3ccnc4cc(Cl)ccc34)OC3OC4(C)CCC1C32OO4 (stereo not drawn) | cell growth or viability, resazurin | 10 µM, 48 h |  | inhibition | 82.8%
CCCCCCCCCCCCCC(=O)NCC(=O)N[C@@H](CCCNC(=N)N)C(=O)N[C@@H](Cc1c[nH]c2ccccc12)C(=O)N[C@@H](CCCCN)C(=O)N[C@H](C(=O)N[C@@H](Cc1ccccc1)C(=O)N[C@@H](CCCCN)C(=O)N[C@@H](CCCCN)C(=O)N[C@H](C(=O)N[C@@H](CCC(=O)O)C(=O)N[C@@H](CCCCN)C(=O)N[C@H](C(=O)NCC(=O)N[C@@H](CCC(N)=O)C(=O)N[C@@H](CC(N)=O)C(=O)N[C@H](C(=O)N[C@@H](CCCNC(=N)N)C(=O)N[C@@H](CC(=O)O)C(=O)NCC(=O)N[C@H](C(=O)N[C@H](C(=O)N[C@@H](CCCCN)C(=O)N[C@@H](C)C(=O)NCC(=O)N1CCC[C@H]1C(=O)N[C@@H](C)C(=O)N[C@H](C(=O)N[C@@H](C)C(=O)N[C@H](C(=O)N[C@H](C(=O)NCC(=O)N[C@@H](CCC(N)=O)C(=O)N[C@@H](C)C(=O)N[C@@H](C)C(=O)N[C@H](C(=O)N[C@H](C(N)=O)[C@@H](C)CC)[C@@H](C)O)C(C)C)C(C)C)C(C)C)C(C)C)[C@@H](C)CC)[C@@H](C)CC)C(C)C)[C@@H](C)CC)[C@@H](C)CC | MTT | concentration not given, 24 h | relative to: K562/MDR | cytotoxicity | no effect
C[C@H]1[C@H](OC(=O)CCC(=O)O[C@H]2CO[C@H]3[C@@H]2OC[C@H]3O[N+](=O)[O-])O[C@@H]2O[C@@]3(C)CC[C@H]4[C@H](C)CC[C@@H]1[C@@]24OO3 | cell growth or viability, CCK-8 | 72 h |  | IC50 | 0.316 µM
CC/C=C\C/C=C\C/C=C\C/C=C\C/C=C\C/C=C\CCC(=O)Nc1ccn(C2OC(CO)C(O)C2(F)F)c(=O)n1 (stereo not drawn) | NCI60 screen |  |  | CC50 | > 100 µM

Repeated from above:
SMILES | test | setting | how to read | measurement | result
C#CCSc1nc(Sc2nnnn2C)c2nnn(Cc3ccccc3)c2n1 | cell growth or viability, MTS | 6 days |  | IC50 | 7.02 µM
C[C@H]1[C@H](OC(=O)CCC(=O)O[C@H]2CO[C@H]3[C@@H]2OC[C@H]3O[N+](=O)[O-])O[C@@H]2O[C@@]3(C)CC[C@H]4[C@H](C)CC[C@@H]1[C@@]24OO3 | cell growth or viability, CCK-8 | 72 h |  | IC50 | 0.316 µM
